# Assay results of several laboratories.
# Numbered parts are unrelated; each lists some results of a single study. Substitutions count along the parent as printed.

# Block 1 — target: NFE2L3, bZIP domain (human); technique: DHFR protein complementation; medium: yeast; reference: wild-type JUN-FOS pair; reading: higher = stronger binding
# Notes: single substitutions, most at no-binding floor
# Starting sequence: JUN, bZIP domain (human); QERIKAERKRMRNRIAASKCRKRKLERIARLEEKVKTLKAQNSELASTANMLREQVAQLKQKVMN; partner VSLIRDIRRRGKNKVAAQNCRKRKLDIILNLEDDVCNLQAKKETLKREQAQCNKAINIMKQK
Change,binding fitness [natural log]
A46H,-1.54
S43I,-1.3
A49M,-1.54
I28Y,-1.42
A49P,-1.51
A29R,-1.29
L59G,-1.54
L31T,-1.54
V56T,-1.44
L38A,-1.48
E54S,-1.52
L31E,-1.37
L38P,-1.48

# Block 2 — technique: protein binding microarray; molecule type: double-stranded DNA, one strand shown; medium: in vitro; concentration: not given; reference: not given; reading: higher = stronger binding
# Target: Histone acetyltransferase KAT6A, winged helix 1, GST fusion (KAT6A, Homo sapiens, UniProt Q92794, residues 1-85)
# Notes: 8-mer, flanks averaged, mean of 2 arrays, mostly near background
# Construct (chain): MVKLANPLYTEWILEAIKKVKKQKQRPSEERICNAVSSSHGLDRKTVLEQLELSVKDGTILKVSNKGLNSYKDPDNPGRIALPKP
Oligonucleotide,E-score
TCACCACA,-0.173
CCTCATTC,-0.185
AGTCAGGA,0.0117
CCGCCAAA,0.126
AGCAGCAC,-0.237
CACCTTAC,-0.0057
GCAAAGCA,-0.0152
TCCAGTCA,-0.00877
CTGATGTC,-0.092
AGCATACT,-0.0351
GTCTAGTA,-0.0327
TACCCACA,-0.0945
AGAAGCGG,0.186
GACCCGTA,0.262
TACAGCCA,-0.0737
CGAAAAGA,-0.187
CCTTAAGC,0.0743
CCTCTTTA,-0.126
AATGCTGT,-0.154
GGCGTACC,0.192

# Block 3 — technique: RNA Bind-n-Seq; molecule type: RNA; medium: in vitro; concentration: 100 nM; reference: input RNA pool; reading: higher = stronger binding
# Target: RING finger protein unkempt homolog, zinc fingers 1-6, SBP tag (UNK, Homo sapiens, UniProt Q9C0B0, residues 30-357)
# Chain of UniProt Q9C0B0 (30-357, looked up): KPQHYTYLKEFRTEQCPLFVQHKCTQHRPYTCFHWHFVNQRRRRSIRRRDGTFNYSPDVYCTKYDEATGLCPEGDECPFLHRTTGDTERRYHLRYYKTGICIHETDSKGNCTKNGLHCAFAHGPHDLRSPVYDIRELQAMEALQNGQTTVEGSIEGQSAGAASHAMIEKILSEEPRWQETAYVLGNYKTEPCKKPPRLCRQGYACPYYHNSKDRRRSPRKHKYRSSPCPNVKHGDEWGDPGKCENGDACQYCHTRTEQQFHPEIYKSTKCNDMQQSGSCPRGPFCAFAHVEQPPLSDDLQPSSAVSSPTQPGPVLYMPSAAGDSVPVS
# Notes: RNA with constant flanks, vertebrate orthologous sites, ends assumed
Oligonucleotide,bound/input enrichment [ratio]
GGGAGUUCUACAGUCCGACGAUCAGAAAAUUUUAACCAAGAGUCUGAAGCUAGAAAUACAGGACCAUGGUUAUCUUCCUCACUUAGAAAUAGAUGCACACCCUUGUUCUCUAGAAGGAGGCGAGAAGGAAGAGACGAAUCUUCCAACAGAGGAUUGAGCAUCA,1.21
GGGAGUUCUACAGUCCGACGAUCGUGACUUUGGAAGUCCGCAGUGUCUCAUUGCAGAUACUUCUUAGCUUAGGACCUGGUGGCUAGGUUGGUUCUCUCCUUUCCAAUCGGAGACCUCUACCGCAAACAUGCUUCGCCAGAUCACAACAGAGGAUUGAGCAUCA,0.569
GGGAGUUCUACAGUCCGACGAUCCCAGCCUUCCGUGUAGGGUCGGCCUUAAAUCUAUAGGAUUUAUGGCAAAUGUAUUAUAUAUAAUUGCAUUGAGUUUAAUAUUUUUUAUUACCCUGUAAAUGAAGAUGGCAUCUCCUACAUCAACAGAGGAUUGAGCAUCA,0.202
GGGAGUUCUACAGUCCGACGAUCGAUAUUGAAUAGUAUUAAACAUUUUUGUCUUCCUUUAUCUUUUAUCCCCUACCUGAUAUCUAGUCUACUUUUUUAAAUUUCAGACUUCACUGCUCUUUGAAUUGAUAAUUCCAAUUUUCACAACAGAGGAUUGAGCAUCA,1.88
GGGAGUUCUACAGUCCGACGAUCCUUAAUUAGAGGGCAAUAUAUGUUUCAUAAAGAAGAGUCUUUAUAAUUUUGUUUGUCAGAUAGUAUUUUGGAAUUUGUAUAAUGAGGAUGUUUAGAAGCCAUGUAAGUGGCUUUUUUUAACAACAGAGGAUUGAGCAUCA,0.466
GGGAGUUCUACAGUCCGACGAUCCCGGGUCCCCCCGCACCCACCCCAGGCCCAGGGACCAGGUGUUGCAUUGAGGACCUGCCUUUCAAACACUUUUUUAAAUUGUCCAGCGAGAGAUGUGACCAAAACAGCAUCUCAAAGUGGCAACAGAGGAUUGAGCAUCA,0.56
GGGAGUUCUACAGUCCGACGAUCGCAAUGAAAAAGCAGCCCUUCUCCCAGCCCCCUUUUCACUAGGAGAUACAAACGUUACCAUAGAAGAGCAAUUAAAUUCAAUAAAUUUAUCUUUUCAGGAUGAUCCAGAUUCCAGUACCACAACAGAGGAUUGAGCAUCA,1.84
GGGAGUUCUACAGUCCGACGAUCUUCUUUUAUUUUGCACAUGACAGUGUUAUGUUGAGGACCUUCUGGGGUGGGCAAGUGCCAUGGCAGUGGCACCCAGGUGCCUGGCUGCAGUGCCCACCACUCCUGGCACCUUUUCCAUGUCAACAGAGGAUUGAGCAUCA,0.297
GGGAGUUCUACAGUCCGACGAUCGUUGUGACCCAUUUAACAUACACAAAAAGCUAGCCAAAAAAAAUUUGCAUGUAAUUGACUUAGAUGAUGCCACUUUUCUGAGUGCAAAAUUUGGAAGACAGCUUGUACCUGGAUGGAAGCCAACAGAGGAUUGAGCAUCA,1.17
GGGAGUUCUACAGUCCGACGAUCAUAAUCACUCUAAUUGUAAUCUGAAAAAAGUGUAACAUUGUGUAGCCUUUUUGUAUAAAAUAGACAAAUAGAAAUGGUCCAAAUAGUUUCCUUUUUAAUAUGCUUAAAAUAAGCAGGUGGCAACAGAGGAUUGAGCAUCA,1.45
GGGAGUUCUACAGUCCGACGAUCAUCCUUUCACACUGUCCCCAGCCAGGGUCAAGGACCAGACGUUUCACUGAGGACCUGCAUUUCAAACAGUUUUUAAAUUGUACAGGAAGAGAUGCGACAAAACAGCAUCUCAGCGUCGAGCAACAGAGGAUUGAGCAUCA,0.336

# Block 4 — technique: DHFR PCA, deep sequencing; medium: yeast; added: (+)-ABA 200 µM; reference: wild-type fitted maximum; reading: higher = stronger binding
# Target: ABI1, truncated, D143A, DHFR fusion (Arabidopsis thaliana)
# Notes: methotrexate growth selection, single substitutions
# Starting sequence: PYL1, truncated, DHFR fusion (Arabidopsis thaliana); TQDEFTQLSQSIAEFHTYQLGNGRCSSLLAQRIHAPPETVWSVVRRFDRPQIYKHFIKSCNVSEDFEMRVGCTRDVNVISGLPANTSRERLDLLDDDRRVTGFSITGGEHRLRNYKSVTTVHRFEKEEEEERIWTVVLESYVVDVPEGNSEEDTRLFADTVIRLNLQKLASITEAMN
Change,relative binding score
T173A,98.8%
E174H,81.8%
G81H,36.5%
P37D,71.5%
R163K,101%
F5Q,98%
N149A,78.3%
F15W,104%
P37M,86.5%
D95S,75%
L29C,85.4%
K54C,3.5%
R111S,65.5%
T6Y,92.7%
A13C,94.1%
L164M,105%
E67H,104%

# Block 5 — target: CCNB2, cyclin fold, Cln2 fusion (human); technique: yeast growth competition, sequencing; medium: yeast; notes: weak parent motif; reference: not given; reading: higher = stronger binding
# Starting sequence: PKN2 docking peptide (human); VSAVQKLDFSDTM
Change,normalised enrichment score
T12M,-0.305
D8C,-0.00761
F9M,-0.409
D8V,0.00781
S10C,-0.103
S10P,-0.0376
T12G,0.518
L7D,-0.305
V4A,-0.226
S2L,-0.0264
V1Y,0.363
D11H,-0.277
F9N,0.215
F9D,-0.244
V4T,-0.299
F9I,-0.127
S10D,0.0439
M13A,-0.181

# Other studies, line by line
Molecule,target,assay,test system,conditions,scale,endpoint,value
"PhoQ, residues 284 288 289 292 302 303 TGYLSA","PhoP, residues 12 14 15 18 19 NYFTV (Escherichia coli, UniProt P23836)","Sort-seq, measured: YFP reporter",E. coli,"PhoQ-PhoP variant library, added: 10 µM Mg2+","reference: high Mg2+ state, higher = stronger signaling",fold induction,10.7

# For quick reference, copied from above (block 3):
Oligonucleotide,bound/input enrichment [ratio]
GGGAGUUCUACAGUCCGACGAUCCUUAAUUAGAGGGCAAUAUAUGUUUCAUAAAGAAGAGUCUUUAUAAUUUUGUUUGUCAGAUAGUAUUUUGGAAUUUGUAUAAUGAGGAUGUUUAGAAGCCAUGUAAGUGGCUUUUUUUAACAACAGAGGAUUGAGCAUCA,0.466
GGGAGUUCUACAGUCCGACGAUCCCGGGUCCCCCCGCACCCACCCCAGGCCCAGGGACCAGGUGUUGCAUUGAGGACCUGCCUUUCAAACACUUUUUUAAAUUGUCCAGCGAGAGAUGUGACCAAAACAGCAUCUCAAAGUGGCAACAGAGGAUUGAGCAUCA,0.56
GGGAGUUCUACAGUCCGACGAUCGCAAUGAAAAAGCAGCCCUUCUCCCAGCCCCCUUUUCACUAGGAGAUACAAACGUUACCAUAGAAGAGCAAUUAAAUUCAAUAAAUUUAUCUUUUCAGGAUGAUCCAGAUUCCAGUACCACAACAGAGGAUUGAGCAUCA,1.84
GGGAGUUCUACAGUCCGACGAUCUUCUUUUAUUUUGCACAUGACAGUGUUAUGUUGAGGACCUUCUGGGGUGGGCAAGUGCCAUGGCAGUGGCACCCAGGUGCCUGGCUGCAGUGCCCACCACUCCUGGCACCUUUUCCAUGUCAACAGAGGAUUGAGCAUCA,0.297
